Results pooled from the literature.
Compare with care: the assays were run in different laboratories. Values joined by “and” are separate records of one study, mostly repeats; a detail may differ. ± gives the spread as reported.

Cn1cc(Nc2nccc(-c3ccc4c(c3)CN(C3COC3)CC[C@H]4NC(=O)c3cn(C(C)(C)C)nn3)n2)cn1 — pathway activation z-score (measured: Estrogen Receptor Signaling; splenic B cells, mouse; in vivo, 30 mg/kg, IgD-activated B cells; baseline: vehicle, positive = activation): 3
N[C@@H](CC(=O)N1CCn2c(nnc2C(F)(F)F)C1)Cc1cc(F)c(F)cc1F — hsCRP (measured: C-reactive protein; type 2 diabetes patients on metformin, plasma; oral, 100 mg once daily, 28 weeks): 2.3 mg/L
N#Cc1ccc2c(c1)[C@H]1CCCN(C(=O)c3ccc4[nH]cnc4c3)[C@H]1C2 — diastolic blood pressure change (human, Phase II trial; 20 mg once daily, day 28, adjusted mean; baseline: baseline): 1.8 mmHg
CC(c1cc2ccccc2s1)N(O)C(N)=O (stereo not shown) — PGE2 level (human blood; 3 µM, with: A23187): 20 ± 7 pg/mL
Cc1c(C)n(Cc2cccc(OC(C)(C)C(=O)O)c2)c2ccc(C(=O)N[C@@H](C)c3ccc(C(C)(C)C)cc3)cc12 — BV/TV (C57BL/6 mice, diet-induced obese, L4 vertebra; dose not given): 11.1 ± 2.8%
O=C1O[C@H]([C@@H](O)CO)[C@H](O)[C@@H]1O — z-scored log2 fold change (binding, equilibrium dialysis LC-MS; 5 µM, thermostabilized A2AR-BRIL construct; baseline: no-protein control, direction not given): 0.415
Cc1ccc(C(=O)Nc2ccnc(S(N)(=O)=O)c2)c(N2CCCC(F)(F)CC2)n1 — nociceptive response (noxious stimulus test; rhesus macaque; 3 and 10 mg/kg; baseline: vehicle): no effect
NCC(=O)Nc1cncc(-c2nn3c(=O)cc(N4CCNCC4)nc3s2)c1 — inhibition (ADP-induced platelet aggregation, light transmission aggregometry; human, stable CAD on aspirin, ex vivo platelets; subcutaneous, 0.05 mg/kg, 240 min post-dose, mean value, with: ADP 20 µM): 12.3%
COc1cc(C(=O)CCO)ccc1O — radical scavenging (DPPH radical; 300 µg/mL): 80.1 ± 1.14%
C[C@H]1O[C@@H](O[C@H]2CC[C@@]3(C)[C@@H](CC[C@]4(C)[C@@H]3C=C[C@]35OC[C@@]6(CCC(C)(C)C[C@H]63)[C@@H](O)C[C@]54C)[C@]2(C)CO)[C@H](O)[C@@H](O[C@@H]2O[C@H](CO)[C@@H](O)[C@H](O)[C@H]2O)[C@H]1O — protein level (Western blot, measured: Mtor; chronic-plus-binge ethanol-fed mice, liver; dose not given, medium dose, unit not given; baseline: β-actin): 0.728 and 0.673 and 1.12
N#Cc1ccc2c(-c3ccncc3)c(-c3ccc(F)cc3)nn2c1 — log2 fold change (kinase binding, competitor, MIB/MS competition, measured: CDC7; Candida albicans cell lysate; 1 µM; baseline: DMSO): -0.304
CNCc1cc(-c2ccccc2F)n(S(=O)(=O)c2cccnc2)c1 — total acid output (basal gastric acid secretion; pylorus-ligated rat; oral, 2 mg/kg): 238 ± 29.1 µEq/3 h
Cn1cc([C@H]2C[C@H]3CSC(N)=N[C@@]3(c3ccc(F)cc3F)CO2)cn1 — Aβ40 level (measured: Aβx-40; Mus musculus wild-type, cerebrospinal fluid; subcutaneous, 3 mg/kg, 1 h): 1.59 ng/mL
COc1cc2cc(-c3ccc(CC(=O)Nc4cc(C(C)(C)C(F)(F)F)no4)cn3)cnc2cc1OC — objective response rate (human RET fusion-positive NSCLC; 75 mg, phase I, RECIST 1.1): 42%
OC(CCN1CCCCC1)(c1ccccc1)C1CC2C=CC1C2 (stereo not shown) — EEG Alpha1-power Pz-O1 (resting-state EEG; healthy elderly humans; oral, 2 mg, eyes open, LS mean): 5.8 µV²
NC(=O)NCc1ccc(O)cc1 — radical scavenging (DPPH radical; 300 µg/mL): 9.59 ± 0.71%
COc1ccc(C2=N[C@@H](c3ccc(Cl)cc3)[C@@H](c3ccc(Cl)cc3)N2C(=O)N2CCNC(=O)C2)c(OC(C)C)c1 — fibrotic area (histology; Dmd C3333Y mice, heart; dose not given): 13.8% and 14.4% and 10.8% and 10.2% and 9.5%
Cc1ccc(Nc2c(F)cccc2Cl)c(CC(=O)O)c1 — Km (bioactivation, measured: dansyl glutathione adduct M6a; human; pathway 3): 94 µM
Nc1nc2c(ncn2[C@H]2C[C@H](O)[C@@H](CO)O2)c(=O)[nH]1 — z-scored log2 fold change (binding, equilibrium dialysis LC-MS; 5 µM, thermostabilized A2AR-BRIL construct; baseline: no-protein control, direction not given): 0.56
Cc1cc(C)c(CNC(=O)c2cc(Cl)c3c(c2C)O[C@@](C)([C@H]2CC[C@H](N(C)C)CC2)O3)c(=O)[nH]1 — overall response rate (human relapsed/refractory NHL; dose not given, measurable baseline disease): 45%
C=CCn1c(=O)c2cnc(Nc3ccc(N4CCN(C)CC4)cc3)nc2n1-c1ccc2c(n1)[C@@](O)(CC)CC2 — tumour growth inhibition (MCF7 xenograft, BALB/c nude mice; oral, 80 mg/kg, day 29, once daily days 1-22 and 26-28): 152%
O=C(O)CNC(=O)Cc1ccccc1 — sarcomere length (ventricular cardiomyocytes, C57BL/6 mouse; dose not given, 0.096 s): 1.72 µm
CCCCC1(CCCC)CN(c2ccccc2)c2cc(SC)c(OCC(=O)N[C@@H](C(=O)NCC(=O)O)c3ccccc3)cc2S(=O)(=O)C1 — plasma C4 (measured: 7α-hydroxy-4-cholesten-3-one; human, plasma; 5 mg once daily, day 2): 47 ng/mL
Nc1nc2c(ncn2[C@@H]2O[C@H](CO)[C@@H](O)[C@H]2O)c(=O)[nH]1 — z-scored log2 fold change (binding, equilibrium dialysis LC-MS; 5 µM, thermostabilized A2AR-BRIL construct; baseline: no-protein control, direction not given): 0.316
c1ccc(-c2n[nH]cc2-c2ccnc3ccccc23)nc1 — log2 fold change (kinase binding, competitor, MIB/MS competition, measured: RIM11; Candida albicans cell lysate; 100 nM; baseline: DMSO): 1.5
O=C(COc1ccc(Cl)cc1)NC12CC(c3nnc([C@H]4C[C@@H](OC(F)(F)F)C4)o3)(C1)C2 — ATF4 protein change (healthy human, PBMC; 200 mg once daily, day 14, 4 h post-dose, median, with: sodium arsenite ex vivo; baseline: baseline): -50.2%
CC(C)NCC(O)c1ccc(O)c(O)c1 (stereo not shown) — sarcomere length (ventricular cardiomyocytes, C57BL/6 mouse; dose not given, 0.364 s): 1.72 µm
CO[C@H]1CC[C@H](N2C(=O)CNc3ncc(-c4ccc(C(C)(C)O)nc4)nc32)CC1 — p4EBP1 change from baseline (flow cytometry; stimulated T cells, human, blood; 30 mg single dose, 1.5 h, mean; baseline: baseline): -40.2%
NC(=O)c1cnc2[nH]ccc2c1N[C@@H]1[C@@H]2CC3C[C@H]1C[C@@](O)(C3)C2 — percent change (CD8+ central memory T cells, flow cytometry; Caucasian humans, peripheral blood; 200 mg single dose; baseline: baseline): 0.53%
N#Cc1ccn2c(-c3ccncc3)c(-c3ccc(F)cc3)nc2c1 — log2 fold change (kinase binding, competitor, MIB/MS competition, measured: ATG1; Candida albicans cell lysate; 1 µM; baseline: DMSO): -0.104
CO[C@H]1C[C@@H]2CC[C@@H](C)[C@@](O)(O2)C(=O)C(=O)N2CCCC[C@H]2C(=O)O[C@H]([C@H](C)C[C@@H]2CC[C@@H](OC(=O)NCCOCCOCCOCCOCCOCCOCCOCCOCCC(=O)N3CCc4cc(Cn5nc(-c6ccc7oc(N)nc7c6)c6c(N)ncnc65)ccc4C3)[C@H](OC)C2)C[C@@H](O)[C@H](C)/C=C(\C)[C@@H](O)[C@@H](OC)C(=O)[C@H](C)C[C@H](C)/C=C/C=C/C=C/1C — phospho-S6RP level (measured: S6RP phospho-Ser240/244; mouse, HCC1954 xenograft, tumour; 1 to 3 mg/kg, weekly, end of dosing interval): decreased
CCO[C@H]1CCN(Cc2c(OC)cc(C)c3[nH]ccc23)[C@H](c2ccc(C(=O)O)cc2)C1 — C3d-positive type III RBCs (PNH patients, blood; oral, 50 mg then 200 mg, week 4, mean percent change; baseline: baseline): -83%
[2H][C@]1(Cc2ccc(OCCc3ccc(CC)cn3)cc2)SC(=O)NC1=O — hepatic steatosis (histopathology; C57BL/6J mouse, choline-deficient diet; dose not given): decreased
C[C@@H](O)CCOC(=O)C[C@@H](C)O — log2 level (measured: insulin; human, plasma; 60 min): 10 ± 1.12 pg/mL
NC(N)=NCC(=O)O — z-scored log2 fold change (binding, equilibrium dialysis LC-MS; 5 µM, thermostabilized A2AR-BRIL construct; baseline: no-protein control, direction not given): 0.276
C[C@@H]1O[C@@H](Oc2ccc(CC#N)cc2)[C@H](O)[C@H](O)[C@H]1O — radical scavenging (ABTS radical; 300 µg/mL): 19.4 ± 1.94%
O=c1cc(-c2ccc(O)cc2)oc2c([C@@H]3OC[C@H](O)[C@H](O)[C@H]3O)c(O)c([C@@H]3O[C@H](CO)[C@@H](O)[C@H](O)[C@H]3O)c(O)c12 — ANP mRNA level (RT-qPCR; HFpEF mice, AngII-treated, heart; dose not given; baseline: AngII alone): decreased
O=P(O)(O)C(Cl)(Cl)P(=O)(O)O — Iba1-positive area (immunostaining; mouse, sham-operated, hippocampal fissure; dose not given, day 7; baseline: total area): 0.67%
O=C(O)/C=C\C(=O)O — z-scored log2 fold change (binding, equilibrium dialysis LC-MS; 5 µM, thermostabilized A2AR-BRIL construct; baseline: no-protein control, direction not given): 0.157
C[C@H](Oc1ccc(Br)cc1-c1ccon1)C(=O)O — difference from placebo (maximum voluntary grip contraction, handgrip dynamometry; healthy human; 200 mg, SAD): -0.213 kg
COc1ccc(-c2cncc(N[C@@H](C)c3cccc(NC(=O)c4cncc(C)c4)c3)n2)cc1OC — delta delta Ct (measured: rno-miR-138-5p; rat SU5416/hypoxia model, lung; dose not given, unit not given; baseline: SU5416/hypoxia vehicle): 0.4
CC1(C)CCC(c2ccc(Cl)cc2)=C(CN2CCN(c3ccc(C(=O)NS(=O)(=O)c4ccc(N[C@H](CCN5CCOCC5)CSc5ccccc5)c(S(=O)(=O)C(F)(F)F)c4)cc3)CC2)C1 — EC50 (cell killing; primary canine neoplastic B cells, dog 28; 24 h): 398 nM
CC(C)c1ncc(C(=O)N2CCOC3(CCN(Cc4ccc(F)c(CCNC[C@H](O)c5ccc(O)c6[nH]c(=O)sc56)c4)CC3)C2)s1 — trough FEV1 change (COPD patients; 18 µg single, 24 h, day 1; baseline: baseline, placebo-corrected): 0 mL
N[C@@H](CCCCN[C@@H](CCC(=O)O)C(=O)O)C(=O)O — z-scored log2 fold change (binding, equilibrium dialysis LC-MS; 5 µM, thermostabilized A2AR-BRIL construct; baseline: no-protein control, direction not given): 0.0393
CCN1[C@@H](C(=O)NC23CCC(C(=O)O)(CC2)CC3)[C@H](c2cccc(Cl)c2F)[C@]2(C(=O)Nc3cc(Cl)ccc32)C12CCCCC2 — objective response rate (human, advanced solid tumours, MDM2-amplified TP53 wild type; dose not given, eight patients, RECIST): 25%
CCC(=O)NCC(=O)O — z-scored log2 fold change (binding, equilibrium dialysis LC-MS; 5 µM, thermostabilized A2AR-BRIL construct; baseline: no-protein control, direction not given): -0.378
N=C(N)NCCC[C@H](NC(=O)[C@H](CCCNC(=N)N)NC(=O)[C@H](CCCCN)NC(=O)[C@H](CCC(N)=O)NC(=O)[C@H](CCCCN)NC(=O)[C@H](Cc1ccc(O)cc1)NC(=O)[C@@H](N)CCCCN)C(=O)N[C@@H](CO)C(=O)N[C@@H](Cc1ccc(O)cc1)C(=O)N[C@@H](CCCCN)C(=O)O — median cold water VAS change (dentin hypersensitivity patients; 10 µg/tooth single, day 22; baseline: baseline): -29 mm
O=C(O)[C@@H]1CCC(O)=N1 — z-scored log2 fold change (binding, equilibrium dialysis LC-MS; 5 µM, thermostabilized A2AR-BRIL construct; baseline: no-protein control, direction not given): 0.276
OCC(O)CO — plasma FGF21 level (ELISA; male Slc25a13 knockout mice, serum; oral in drinking water, 5 % w/v, 2 days): 369 pg/mL and 1120 pg/mL and 1700 pg/mL and 4310 pg/mL and 401 pg/mL and 728 pg/mL
